Assay results collected from several papers.
Each numbered part is a random draw from the data of one study; scales do not carry over between parts.

Series 1 — technique: universal PBM; molecule type: double-stranded DNA, one strand shown; matrix: in vitro; tested at: 600 nM; reading: higher = stronger binding
Target: Sal-like protein 4, full length isoform A (SALL4, Homo sapiens, UniProt Q9UJQ4, residues 1-1053)
Sequence of UniProt Q9UJQ4 (whole entry, looked up): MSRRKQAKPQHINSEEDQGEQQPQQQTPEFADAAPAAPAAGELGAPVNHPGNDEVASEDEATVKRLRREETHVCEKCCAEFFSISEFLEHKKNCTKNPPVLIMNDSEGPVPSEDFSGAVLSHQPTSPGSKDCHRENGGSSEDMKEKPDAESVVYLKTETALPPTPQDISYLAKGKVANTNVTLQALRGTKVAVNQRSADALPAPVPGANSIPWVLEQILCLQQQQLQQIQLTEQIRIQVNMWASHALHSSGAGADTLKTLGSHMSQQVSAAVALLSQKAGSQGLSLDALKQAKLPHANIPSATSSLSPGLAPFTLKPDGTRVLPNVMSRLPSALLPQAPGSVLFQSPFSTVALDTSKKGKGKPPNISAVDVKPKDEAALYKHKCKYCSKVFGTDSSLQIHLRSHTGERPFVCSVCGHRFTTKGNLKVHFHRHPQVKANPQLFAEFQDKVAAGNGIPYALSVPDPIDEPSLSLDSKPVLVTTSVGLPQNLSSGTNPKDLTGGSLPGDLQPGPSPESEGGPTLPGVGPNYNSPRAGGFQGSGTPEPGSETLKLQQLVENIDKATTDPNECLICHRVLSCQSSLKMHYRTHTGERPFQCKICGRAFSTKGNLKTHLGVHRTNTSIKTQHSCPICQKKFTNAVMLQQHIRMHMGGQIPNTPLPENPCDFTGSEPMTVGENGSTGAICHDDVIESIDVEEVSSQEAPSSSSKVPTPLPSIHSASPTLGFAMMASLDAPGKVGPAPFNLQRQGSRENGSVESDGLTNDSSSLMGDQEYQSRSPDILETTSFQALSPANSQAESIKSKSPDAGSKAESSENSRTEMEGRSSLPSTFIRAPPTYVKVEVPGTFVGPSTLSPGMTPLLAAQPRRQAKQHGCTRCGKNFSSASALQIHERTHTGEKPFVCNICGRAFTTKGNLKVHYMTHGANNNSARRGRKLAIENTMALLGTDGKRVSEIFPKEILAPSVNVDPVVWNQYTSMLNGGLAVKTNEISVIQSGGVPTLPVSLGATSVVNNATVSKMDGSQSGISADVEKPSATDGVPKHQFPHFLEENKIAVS
Setting: 8-mer, flanks averaged, mean of replicates
| Sequence | E-score |
| --- | --- |
| TAACCTGA | 0.054 |
| ACGAGTGG | -0.0937 |
| CAGCTAGC | -0.239 |
| ATATTGGG | 0.221 |
| AAGTTGGA | 0.149 |
| CAGTAAGC | -0.0908 |
| CGTAGAGC | -0.215 |
| AATTCTAG | 0.219 |
| ATTGAAAG | 0.207 |
| ATTGAGGA | 0.144 |
| GCATGAAA | 0.156 |
| TCACACGA | 0.0486 |
| CATTTTTC | 0.327 |
| CTTGTGGA | -0.116 |
| ACCATGGT | -0.0704 |
| CTCGTCCA | -0.0688 |
| CGGAGCCC | -0.433 |
| ATGCTAAA | 0.16 |
| AACCATTC | 0.0885 |
| CCACATCA | 0.0944 |
| CACGCCGG | -0.281 |
| ACCCTACA | 0.0249 |
| CCTGTGTA | 0.148 |
| AGAGTCGG | -0.125 |
| GTCACCAC | -0.214 |

Series 2 — technique: protein-binding microarray; molecule type: double-stranded DNA, one strand shown; matrix: in vitro; tested at: 250 nM; setting: 60-bp whole probe; with: salmon DNA 0.4 mg/ml; relative to: random background probes; reading: higher = stronger binding; shared flanks, not repeated: GCCTAGCAC … GTCTTGATTCGCTTGACGCTGCTG
Target: Interferon regulatory factor 5, full length, phosphomimetic (IRF5, Homo sapiens, UniProt Q13568-2, residues 1-514, K96S/S451D/S453D/S456D/S462D)
| Sequence | log fluorescence [z-score] |
| --- | --- |
| TTAGAACTGAGTATCGATTCGTGCTAG | 5.62 |
| CTGGTGCTCATCTGTCATGTTGTGCTA | -0.202 |
| TCATCTTTTTTGTTCCAACTGTGCTAG | 1.24 |
| GACGGTATCCTACTGCTAACGTGCTAG | -0.0264 |
| TTAGGTCTCCTTTTCCTCTAGTGCTAG | 0.217 |
| AGGGTCCCGCGATTCGACACGTGCTAG | -0.684 |
| GACGGACTGGTTATCCTGACGTGCTAG | -0.445 |
| TCATCCTTTACTTTCTTACTGTGCTAG | 1.8 |
| TTAGGGCTGGGGACTGGGTTAGTGCTA | -0.908 |
| ATAGATATCAGTTTCGATTAGTGCTAG | 10.5 |
| GACGATAACAGACTGGAGACGTGCTAG | 0.366 |
| TCACATCTGGGTATTTTACTGTGCTAG | 0.342 |
| GACGGTTTCGGTATCGGGGCGTGCTAG | 9.6 |
| GAGGAACTGGGGACTGGAGACGTGCTA | -0.361 |
| TTAGGTCTCCTTATTCTTTAGTGCTAG | 0.112 |
| GACGGTCTCGGTTTAGGGACGTGCTAG | 0.709 |
| TTAGCTATCGACTTTCGGTTAGTGCTA | 10.1 |
| GACGAATTCAGTCTCGAGACGTGCTAG | 0.161 |
| GACGGTCTCCTACCGCTGACGTGCTAG | -0.315 |
| GACGATTTCAGACTGGACACGTGCTAG | 0.3 |
| GACGACTTCAGTTCCGAGACGTGCTAG | 0.0291 |
| GACGATCTCAGTTTCGAGTCGTGCTAG | 5.48 |
| CTGGAATCAATTTATTGACCGTGCTAG | -0.101 |
| TCACCACTTTCTTTTGCACTGTGCTAG | 2.36 |
| ATTTAAGTTTCACTCTGCATGGTGCTA | 6.79 |

Series 3 — technique: RNA Bind-n-Seq; molecule type: RNA; matrix: in vitro; tested at: 365 nM; relative to: no-protein control; reading: higher = stronger binding
Target: RNA binding protein fox-1 homolog 2, RRM domain, GST-SBP tag (RBFOX2, Homo sapiens, UniProt O43251-10, residues 100-194)
Setting: natural RNA segment, single round, ends assumed
Shared flanks, not repeated: GGGAGUUCUACAGUCCGACGAUC … UGGAAUUCUCGGGUGCCAA
Residues (chain): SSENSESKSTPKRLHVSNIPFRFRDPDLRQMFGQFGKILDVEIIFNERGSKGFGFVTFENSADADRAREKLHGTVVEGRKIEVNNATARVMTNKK
| Sequence | RBNS enrichment (R) |
| --- | --- |
| GGACGAGUCCUUUCCAGCCUGCAAGAUUGAGUUUGAAUGACCUGCGCUCCCUUCCCUAAGGAUCCACUCCUACAGUUCAUUUAGAGAAUGGCUACUGCUGAGUCCUCUGG | 3.64 |
| CCACAGCACCCAGGAGUGGCCCUGUCUUGCCACAAAGAGCCCGACCAGCAGGUCCUGCAGCUUACCAAGCCCAGGGUGUGUGGGGCCCUCACGCAGUUCGACUGGGAAAA | 0.253 |
| UUUGAAACAGCAUUGUGACCACCAGGACAUCAUCGUAAAGUCUGUCUUGAAGGUGUUCCCCACCCCGCCCAGGGGCUUGCACUUGGAGGACUACAGCACACCUGGUUUCC | 0.424 |
| UGAAGACAAAAGAUGUUUUUAUUUUAGACCCAGAAGAGAGGAGUUUGCUCUGAAUUUGUAAAUAAGUCUUCCCCAUUCCUCAUACUCGAGCCUCUCCUCUCUGGUUGCCU | 0.422 |
| CAAAAGCAUAAAAAACCACAGCAAAUUUCUUGAUGAGAACUGAAAAUAAAAGUUUCCUUGUAUUUUAGUGAUCUGGUUCUGUGUGGGUGAGUGUGGGUUCCAGGUACCCC | 0.385 |
| GGAGAGCAAAAAGUAUGAAUGGGAUGGAGCUAAGAAGUCUGAAUACUUAAUGAAAUGGACUUUUUGGAAAGAAAUCAGAUGAAGGCAUAAAAUUUAGUUCUUAGCUCUUG | 0.964 |
| UCCAGGAGCUAUGGGGUUCAUCCAGGCAUGAAGGCUAAUCCACUCUGAGUAAAGUGUCAGUUGCACAGCUCCGUCCUCUUCUGUCUUGCACUGUGGGUGGCACUAUUUAU | 4.1 |
| UCAGACAACUAGUUGUCUGACAGAAAUGUUAGGCUUCAUGUAUGUUACCCCAGUACUGUUAGAAACAUUUGUACUAGGUUAUAAGAUCUUUCUGUGACAGGUAACAAAUU | 0.256 |
| UUUAAUUUAAAUGACGCUUUGCUAAUUUUAAGUGUUAAGCAUUUUGCAUUAAAAUAUUCAUAUAAUAUUUUGGCUCAGUUUAUUGGCAUUAUCCUCUCAUUGUGGUUUCA | 0.999 |
| AGUCUCUCUGGUUUGUCUUCUGACCCAACAGACCUGGAUCCCUGAGUCCUACCCACUCUGUCCCCAUCACCUUUCUCCACUGGGUGCAGAUCCUAGCUCCGCCUCCUGGG | 0.313 |
| ACACGGGCAACAAAGUAGGGAUUUGAUUCCCCUUUGAGGAGGUAGUGCUGUUUGCUUUUAGGUCUGGGUGCUCAGGGGCCCUCACUGAUACAAGAGCCCAUCUCUUCUCC | 0.234 |
| UUAAUAUACUUUCGUUCCAUGGUGUGCAGGUUUUCUUUUACUUCAGUGUUAUGAUCUCUUCCAGCUGUGCUCCAGUAGGGCGGAGAGCCUCGCACGUGCACCAGACCCCA | 0.527 |

Series 4 — technique: protein binding microarray; molecule type: double-stranded DNA, one strand shown; matrix: in vitro; tested at: not given; relative to: not given; reading: higher = stronger binding
Target: Histone acetyltransferase KAT6A, winged helix 2, GST fusion (KAT6A, Homo sapiens, UniProt Q92794, residues 85-181)
Setting: 8-mer, flanks averaged, mean of 2 arrays, mostly near background
Construct (chain): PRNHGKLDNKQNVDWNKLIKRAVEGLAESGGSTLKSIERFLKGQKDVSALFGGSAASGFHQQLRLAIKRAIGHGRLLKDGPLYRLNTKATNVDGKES
| Sequence | E-score |
| --- | --- |
| ACATGATC | -0.0823 |
| AAGGTTAA | -0.0576 |
| AGAGAGCC | 0.0356 |
| CTGCGTAA | 0.03 |
| CTGCCCAG | -0.0255 |
| TCTGTTAA | -0.0831 |
| GTAAAGAC | -0.0402 |
| AGGACACA | 0.105 |
| GCAAACAC | -0.0104 |
| AAATATAC | -0.143 |
| CAATAGCG | -0.184 |
| CACGTGTA | -0.192 |
| AAGTGCCA | 0.0403 |
| AGAGGGTC | -0.141 |
| AGTCCACT | -0.114 |
| ACCCATAC | -0.0891 |
| CTGTTAGA | -0.246 |
| CGGAGGAA | 0.0827 |
| TCTGAAAA | 0.0178 |
| GACCTTGC | 0.0751 |
| TCGCGAAA | -0.0315 |
| CACTCCTG | 0.0158 |
| CGATCTAC | -0.0484 |

Series 5 — technique: RNA Bind-n-Seq; molecule type: RNA; matrix: in vitro; tested at: 200 nM; setting: whole 134-nt RNA, ends assumed; with: 150 mM LiCl; relative to: input library; reading: higher = stronger binding; each molecule: 7-deaza-guanosine replaces G
Target: Fragile X messenger ribonucleoprotein 1, C-terminal low-complexity region (Fmr1, Mus musculus, UniProt P35922)
Shared flanks, not repeated: GGGAGUUCUACAGUCCGACGAUC … UGGAAUUCUCGGGUGUCAAGG
| Sequence | log2 enrichment |
| --- | --- |
| UGGAUGGACACCAUUAUCGUCGUGUGGCACGGGUUGACCUAAGGAAGAAGACAGAGACUUUCUCCACAAGAAGGGUUAAGUCUGGGCUGU | -0.524 |
| AAGUCCUGUGCUACACAUCGUAUGUACCGAAUCGGGGAAAGGGGAAAGGGAAAGGGGAAAGUAUUAUGUUACGCCGUUCGGAUCUGCACU | 1 |
| AGUCCUGUGCUACACAUCGUAUGUACCGAAUCGGGGAAAAGGGAAAAGGGAAAAGGGGAAAGUAUUAUGUUACGCCGUUCGGAUCUGCAC | 0.116 |
| UCCUGUGCUACACAUCGUAUGUACCGAAUCGGGGUUUUUGGGGUUUGGGGAAAAAGGGGAAAGUAUUAUGUUACGCCGUUCGGAUCUGCA | -1.58 |
| CCUCAAGUCCUGUGCUACACAUCGUAUGUACCGAAUCGGAAAGGUGGAAAGGAAAGUAUUAUGUUACGCCGUUCGGAUCUGCACUUCCAG | 0.155 |
| UCAAGUCCUGUGCUACACAUCGUAUGUACCGAAUCGGUUUUUUUGGUUUGGUGGAAAGUAUUAUGUUACGCCGUUCGGAUCUGCACUUCC | -1.62 |
| UUAAAACAUGGCAACUUGUAAUUGUUUUCUUUCUUAGGAACAUCAUUCAUGGCAGUGAUUCAGUAAAAAGUGCUGAAAAAGAAAUCAGCC | -1.02 |
| GUCCUGUGCUACACAUCGUAUGUACCGAAUCGGGCCCCCGGGCCCCCGGGGCCCCCGGAAAGUAUUAUGUUACGCCGUUCGGAUCUGCAC | -3.29 |
| ACCAUGCAGGUGGGCAUCUUUGGGAAGUGGGGCAAUGGGGGGAUAGGGAGGGGGGUAACACUUUGGGAACAGGUGGUCCCAGGUCGUUUC | 1.3 |
| CAAUGGGAAUGGACCAAAGAGUUUCAGGGAAACUCCAGUAUAUUCCAGAGUCAGAUCUAAGCUCCAGGCACGCCUGAAGAUGUGUUGCUA | -0.292 |
| UCCUGUGCUACACAUCGUAUGUACCGAAUCAAACCCAAAUUUUUUUAAAUUUUUUUAAAAAAGUAUUAUGUUACGCCGUUCGGAUCUGCA | -1.63 |

Excerpt of the above (series 5):
| Sequence | log2 enrichment |
| --- | --- |
| UGGAUGGACACCAUUAUCGUCGUGUGGCACGGGUUGACCUAAGGAAGAAGACAGAGACUUUCUCCACAAGAAGGGUUAAGUCUGGGCUGU | -0.524 |
| AAGUCCUGUGCUACACAUCGUAUGUACCGAAUCGGGGAAAGGGGAAAGGGAAAGGGGAAAGUAUUAUGUUACGCCGUUCGGAUCUGCACU | 1 |
| AGUCCUGUGCUACACAUCGUAUGUACCGAAUCGGGGAAAAGGGAAAAGGGAAAAGGGGAAAGUAUUAUGUUACGCCGUUCGGAUCUGCAC | 0.116 |
| UCCUGUGCUACACAUCGUAUGUACCGAAUCGGGGUUUUUGGGGUUUGGGGAAAAAGGGGAAAGUAUUAUGUUACGCCGUUCGGAUCUGCA | -1.58 |
| CCUCAAGUCCUGUGCUACACAUCGUAUGUACCGAAUCGGAAAGGUGGAAAGGAAAGUAUUAUGUUACGCCGUUCGGAUCUGCACUUCCAG | 0.155 |
| UCAAGUCCUGUGCUACACAUCGUAUGUACCGAAUCGGUUUUUUUGGUUUGGUGGAAAGUAUUAUGUUACGCCGUUCGGAUCUGCACUUCC | -1.62 |
| UUAAAACAUGGCAACUUGUAAUUGUUUUCUUUCUUAGGAACAUCAUUCAUGGCAGUGAUUCAGUAAAAAGUGCUGAAAAAGAAAUCAGCC | -1.02 |
| GUCCUGUGCUACACAUCGUAUGUACCGAAUCGGGCCCCCGGGCCCCCGGGGCCCCCGGAAAGUAUUAUGUUACGCCGUUCGGAUCUGCAC | -3.29 |
| ACCAUGCAGGUGGGCAUCUUUGGGAAGUGGGGCAAUGGGGGGAUAGGGAGGGGGGUAACACUUUGGGAACAGGUGGUCCCAGGUCGUUUC | 1.3 |
| CAAUGGGAAUGGACCAAAGAGUUUCAGGGAAACUCCAGUAUAUUCCAGAGUCAGAUCUAAGCUCCAGGCACGCCUGAAGAUGUGUUGCUA | -0.292 |
| UCCUGUGCUACACAUCGUAUGUACCGAAUCAAACCCAAAUUUUUUUAAAUUUUUUUAAAAAAGUAUUAUGUUACGCCGUUCGGAUCUGCA | -1.63 |
